Experimental data pooled from the literature.
Every numbered part comes from another study and shows a few of its results, in no order. Positions count from the first letter of the parent shown.

Set 1
Target: Prothrombin, mature alpha-thrombin (F2, Homo sapiens, UniProt P00734)
Method: aptamer microarray, sandwich
Form: DNA with 2'F-ANA
Medium: in vitro
Concentration: 200 nM
Setting: whole 15-mer aptamer, many near background
With: Cy3 exosite-II aptamer, 400 nM
Reading: higher = stronger binding
Quantity: mean fluorescence intensity
Sequence: GGTTGGTGTGGTTGG
2'F-ANA at 8 11 13 15: 447 a.u.
2'F-ANA at 2 4 8 10 12: 136 a.u.
2'F-ANA at 1 3 6 11 13 14: 72.8 a.u.
2'F-ANA at 2 4 6 9 11: 202 a.u.
2'F-ANA at 1 2 3 7 9 10 15: 126 a.u.
2'F-ANA at 2 3 5 9 13: 69.4 a.u.
2'F-ANA at 2 3 4 6 7 8 9 10 11 12 13 14 15: 149 a.u.
2'F-ANA at 4 6 7 8 9 10 11 12 14 15: 57.4 a.u.
2'F-ANA at 3 4 6 9 11 13: 451 a.u.
2'F-ANA at 1 3 5 9 10 12 13: 46.3 a.u.
2'F-ANA at 3 5 6 7 9 10 13 15: 49.6 a.u.
2'F-ANA at 3 4 5 6 8 10 11 15: 52.7 a.u.

Set 2
Target: Histone acetyltransferase KAT6A, both winged helices, GST fusion (KAT6A, Homo sapiens, UniProt Q92794, residues 1-181)
Method: protein binding microarray
Form: double-stranded DNA, one strand shown
Medium: in vitro
Concentration: not given
Setting: 8-mer, flanks averaged, mean of 2 arrays, mostly near background
Relative to: not given
Reading: higher = stronger binding
Quantity: E-score
Construct (chain): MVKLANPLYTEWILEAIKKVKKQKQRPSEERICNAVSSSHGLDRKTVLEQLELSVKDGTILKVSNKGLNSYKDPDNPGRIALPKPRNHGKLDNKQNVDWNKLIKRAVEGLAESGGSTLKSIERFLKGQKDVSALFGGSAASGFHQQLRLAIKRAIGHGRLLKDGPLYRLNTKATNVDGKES
ACAAGAAA: -0.036
GCAGGGAC: -0.0553
TATTACCA: -0.109
AGTGTGAC: -0.23
ACCACTCC: -0.065
GACCGTCC: 0.168
ATTGCAAG: -0.148
CCATATCA: -0.0765
ATTTGTCC: -0.0491

Set 3
Target: ABI1, truncated, D143A, DHFR fusion (Arabidopsis thaliana)
Method: DHFR PCA, deep sequencing
Medium: yeast
Setting: methotrexate growth selection, single substitutions
With: (+)-ABA 2500 µM
Relative to: wild-type fitted maximum
Reading: higher = stronger binding
Quantity: relative binding score
Starting sequence: PYL1, truncated, DHFR fusion (Arabidopsis thaliana); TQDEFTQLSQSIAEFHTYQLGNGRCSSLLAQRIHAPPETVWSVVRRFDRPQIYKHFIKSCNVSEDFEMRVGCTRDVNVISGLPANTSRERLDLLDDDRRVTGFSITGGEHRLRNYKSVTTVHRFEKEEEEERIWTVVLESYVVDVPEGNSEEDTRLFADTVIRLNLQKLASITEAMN
L112M: 100%
I105M: 89.1%
N165F: 37.1%
L20E: 102%
R24D: 99.1%
K54R: 77.8%
Q19M: 95.5%

Further values, each from its own experiment
PhoQ, residues 284 288 289 292 302 303 WVSSAF  fold induction (PhoP, residues 12 14 15 18 19 GHCSL (Escherichia coli, UniProt P23836); Sort-seq, measured: YFP reporter; E. coli; PhoQ-PhoP variant library, with: 10 µM Mg2+; relative to: high Mg2+ state, higher = stronger signaling): 10.9

Some of these lines once more (further values, each from its own experiment):
PhoQ, residues 284 288 289 292 302 303 WVSSAF  fold induction (PhoP, residues 12 14 15 18 19 GHCSL (Escherichia coli, UniProt P23836); Sort-seq, measured: YFP reporter; E. coli; PhoQ-PhoP variant library, with: 10 µM Mg2+; relative to: high Mg2+ state, higher = stronger signaling): 10.9
